# Assay results collected from several papers.
# Compare with care: the assays were run in different laboratories. “And” joins repeats or separate records; there may be more than shown. ± marks the error that the study gave.
# Chain of UniProt P33261 (whole entry, looked up): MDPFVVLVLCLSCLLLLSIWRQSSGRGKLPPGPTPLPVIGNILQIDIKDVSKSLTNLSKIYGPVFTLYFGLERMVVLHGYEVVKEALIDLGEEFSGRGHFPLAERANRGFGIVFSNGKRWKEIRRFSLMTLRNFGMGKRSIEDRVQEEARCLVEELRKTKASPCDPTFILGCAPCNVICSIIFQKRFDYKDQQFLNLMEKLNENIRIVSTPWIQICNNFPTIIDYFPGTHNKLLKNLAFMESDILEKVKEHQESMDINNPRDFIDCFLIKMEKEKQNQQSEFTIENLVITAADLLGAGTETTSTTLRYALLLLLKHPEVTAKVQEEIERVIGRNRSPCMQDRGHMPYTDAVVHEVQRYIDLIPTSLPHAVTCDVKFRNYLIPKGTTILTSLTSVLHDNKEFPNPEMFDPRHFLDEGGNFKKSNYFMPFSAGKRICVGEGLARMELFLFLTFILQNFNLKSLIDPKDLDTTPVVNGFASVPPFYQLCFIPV
SMILES,target or system,test,system,setting,how to read,endpoint,result
N#CC(C#N)=NNc1ccc(-c2ccc(F)cc2F)cc1,,1H NMR titration,aqueous ATPase buffer,1% DMSO,,solubility limit,> 250 µM
O=C(Nc1cnccc1-c1ccc([18F])cc1)c1ccnc(NC(=O)C2CC2)c1,,ex vivo gamma counting,"GSK-3β transgenic mice, late-stage, bladder","intravenous, 120 min, mean, no P-gp inhibitor",,SUV,0.84
Cc1ncsc1-c1ccc(C(C)NC(=O)C2CC(O)CN2C(=O)C(NC(=O)CCCCCCCCCCN2CCCC(Nc3ncc(Cl)c(Nc4ccccc4S(=O)(=O)C(C)C)n3)C2)C(C)(C)C)cc1 (stereo not drawn),22Rv1,"RNA-seq, refers to: PDIK1L",,concentration not given,reference: DMSO,log2 fold change,-1.86
C=C(NC(=O)c1csc(-c2nc3c(cc2O)-c2nc(cs2)C(=O)NC(C(C)O)C(=O)NC(=C(C)OC)c2nc(cs2)C(=O)NC2c4nc(cs4)C(=O)NC(COC(=O)c4c5c6c(cccc6n4O)COC(=O)C(OC4CC(C)(O)C(N(C)C)C(C)O4)C2OC5)c2nc-3cs2)n1)C(N)=O (stereo not drawn),,,"female Sprague-Dawley rat, plasma","intravenous, 6 mg/kg, single dose, infusion",,Tmax,4.8 min
CC1Cc2ccccc2N1C(=O)CN1CCN(Cc2ccccc2)CC1 (stereo not drawn),,,"female NMRI mice, whole blood","intraperitoneal, 10 mg/kg free base, 15 min",,concentration,216 ng/mL and 142 ng/mL
CN1CCCNC(=O)c2cccc(c2)C(=O)NCCCN(C)CCCNc2cccc3c2C(=O)c2cccc(c2C3=O)NCCC1,SAS,"RNA-Seq, refers to: UBE3C mRNA",,"1 µM, 6 h",reference: untreated cells,log2 fold change,-0.743
C=CC(=O)Nc1cc(Nc2nccc(-c3cn(C)c4ccccc34)n2)c(OC)cc1N(C)CCNC,,storage stability,human dried blood spots,"72 h, -80 °C, medium QC level",,recovery,90.3%
COc1cccc(OC)c1-c1cc(C(=O)NC2(C(=O)O)C3CC4CC(C3)CC2C4)nn1-c1ccc(C(=O)N(C)CCOCCN(C)C(=O)[C@H](CCCCNC(=O)[C@H](CC(C)C)NC(=O)C2OC2C(=O)O)NC(=O)CN2CCN(CC(=O)[O-])CCN(CC(=O)[O-])CCN(CC(=O)[O-])CC2)cc1C(C)C.[177Lu+3] (mixture of isomers),,,"mouse, HT-29 xenograft","4 h post injection, biodistribution",reference: tumour over lung uptake,tumour-to-lung ratio,4.99
C#CCCC[C@H](NC(=O)[C@H](C)NC(=O)[C@H](CCCNC(=N)N)NC(=O)[C@H](C)NC(=O)[C@H](CS)NC(=O)[C@H](CCC(=O)O)NC(=O)[C@H](C)NC(C)=O)C(=O)N[C@@H](C)C(=O)N[C@@H](Cc1ccc(O)cc1)C(N)=O,,circular dichroism,10 mM phosphate buffer,"pH 7.4, 20 °C",,helicity,15%
COC1CN([C@H]2CC[C@H]([C@@]3(C)Oc4c(Cl)cc(C(=O)NCc5c(SC)cc(C)[nH]c5=O)c(C)c4O3)CC2)C1,,"RNA-seq, refers to: KIT","human cancer patients, whole blood","dose not given, 24 h, PRC2 target gene",reference: pretreatment sample,log2 fold change,3.45
Cc1ccc(CN2C(=O)/C(=N\c3ccc(Cl)cc3Br)c3ccccc32)cc1,,,"mouse, blood",100 mg/kg,,MCV,44.7 ± 1.4 fL
CNS(=O)(=O)Nc1nccc(Cc2c(C)c3ccc(Oc4ncccc4F)cc3oc2=O)c1F,Ca Ski,"cell viability, CellTiter-Glo",,7 days,,IC50,> 1 µM
C=CC(=O)Nc1cccc(Cn2ncc3cnc(Nc4cnn(CCOC)c4)nc32)c1,human CAMK1B,KINOMEscan,,100 nM,reference: control,binding,92%
CC[C@H](C)[C@H](NC(=O)[C@H](CCCCN)NC(=O)[C@H](CCC(=O)O)NC(=O)[C@H](CCCCN)NC(=O)[C@H](CC(C)C)NC(=O)[C@H](C)NC(=O)[C@H](C)NC(=O)[C@@H](NC(=O)[C@H](CCCCN)NC(=O)[C@@H]1CSCc2cccc(c2)CSC[C@H](NC(=O)[C@@H](NC(=O)[C@H](CCCCN)NC(C)=O)[C@@H](C)CC)C(=O)N[C@@H](C)C(=O)N[C@@H](CC(C)C)C(=O)N[C@@H](CCCCN)C(=O)N1)[C@@H](C)CC)C(=O)N[C@@H](C)C(=O)N[C@@H](C)C(=O)N[C@@H](CC(C)C)C(=O)N[C@@H](CCCCN)C(=O)N[C@@H](CCC(=O)O)C(=O)NCC(=O)N[C@@H](Cc1c[nH]c2ccccc12)C(N)=O,,circular dichroism at 222 nm,PBS,"pH 7.4, 20 °C, single peptide 50 µM total",,helicity,53%
CN([O-])C(=O)CN1CCN(CC(=O)N(C)[O-])CCN(Cc2ccccn2)CC1.[89Zr+4],,,"mouse, kidney","intravenous, 4 h",,tracer uptake,1.17 %ID/g
C=CC[C@@H]1/C=C(\C)C[C@H](C)C[C@H](OC)[C@H]2O[C@@](O)(C(=O)C(=O)N3CCCC[C@H]3C(=O)O[C@H](/C(C)=C/[C@@H]3CC[C@@H](O)[C@H](OC)C3)[C@H](C)[C@@H](O)CC1=O)[C@H](C)C[C@@H]2OC,,,"kidney transplant recipients, CYP3A5 *1/*1 and *1/*3, whole blood","oral, dose not given, early phase, limited sampling",,dose-normalized AUC(0-12h),112 ± 75.4 ng·h/mL
CCC(CC)n1c(Cc2cccs2)nc2cc(C(=O)N[C@@H](CC(=O)O)c3ccccc3)ccc21,,,"male Sprague-Dawley rat, plasma","intravenous, 1 mg/kg",,AUC(0-t),550 ng·h/mL
CNC(=O)C1CCCN(C(=O)C2CC3CCC2N3C(=O)[C@@H]2C[C@@H](O)CN2C(=O)NCc2cccc(Cl)c2F)C1 (mixture of isomers),"Cytochrome P450 2C19 (CYP2C19, Homo sapiens, UniProt P33261)","enzyme activity, inhibitor, time-dependent inhibition",,"1.85 µM, preincubated without NADPH",reference: negative control,remaining activity,81.8%

# Excerpt of the above:
SMILES,target or system,test,system,setting,how to read,endpoint,result
O=C(Nc1cnccc1-c1ccc([18F])cc1)c1ccnc(NC(=O)C2CC2)c1,,ex vivo gamma counting,"GSK-3β transgenic mice, late-stage, bladder","intravenous, 120 min, mean, no P-gp inhibitor",,SUV,0.84
Cc1ncsc1-c1ccc(C(C)NC(=O)C2CC(O)CN2C(=O)C(NC(=O)CCCCCCCCCCN2CCCC(Nc3ncc(Cl)c(Nc4ccccc4S(=O)(=O)C(C)C)n3)C2)C(C)(C)C)cc1 (stereo not drawn),22Rv1,"RNA-seq, refers to: PDIK1L",,concentration not given,reference: DMSO,log2 fold change,-1.86
